# Experimental data from different studies.
# Compare with care: the assays were run in different laboratories. ± gives the spread as reported.
SMILES,organism,assay,system,conditions,how to read,quantity,value
O=C(c1ccc2[nH]ccc2c1)N1CCC2(CCCN(CCc3ccccc3)C2)C1 (centres unmarked),Lassa mammarenavirus,viral replication,Huh-7,"10 µM, 72 h",,remaining activity,2%
O=C(/C=C/c1ccc(O)c(O)c1/C=C/c1ccc(O)c(O)c1)O[C@H](Cc1ccc(O)c(O)c1)C(=O)O,SARS-CoV-2,cytopathic effect,Vero E6,"100 µM, replicate run",,mean inhibition,75%
Nc1ncnc2c([C@@H]3N[C@H](CO)[C@@H](O)[C@H]3O)c[nH]c12,Marburg virus,viral replication,"HeLa, Angola",200 µM,,inhibition,99%
COc1cc2c(cc1OCC1CC1)NC(=O)C21CCN(c2cc(NC3CC3)ncn2)CC1,SARS-CoV-2,cytopathic effect,USA_WA1/2020,"retest, 8-point, duplicates",,efficacy,73%
Cc1nc[nH]c1CN1CCc2cc3ccc2C1c1cccc(c1)OCCCNC(=O)c1cc(ccc1O)O3 (centres unmarked),Lassa mammarenavirus,viral replication,Huh-7,concentration not given,,Emax,98.4%
Cn1cncc1[C@@](N)(c1ccc(Cl)cc1)c1ccc2c(c1)c(-c1cccc(Cl)c1)cc(=O)n2C,SARS-CoV-2,"viral replication, high-content imaging screen",,cell-based,,EC50,> 100 µM
CCN(CC)CCNC(=O)c1[nH]c2ccccc2c1Sc1ccc(Cl)cc1,SARS-CoV-2,"cytopathic effect, cell-based CPE",USA_WA1/2020,"round 2, 5-point dilution",,AC50,12.6 µM
N=C(N)c1ccc(C=C2c3ccccc3-c3ccccc32)cc1,SARS-CoV-2,"viral replication, high-content imaging screen",,cell-based,,EC50,> 100 µM
Cn1c(=O)ccc2ccc(F)c(CCNC[C@H]3CN(c4cnc5c(n4)NC(=O)CO5)C(=O)O3)c21,Legionella pneumophila,microbial growth,,,,MIC50,< 0.015 µg/mL
Cc1c(CN2CCN(c3cccc(C(F)(F)F)c3)CC2)cc(-c2ccccc2)n1NC(=O)c1ccncc1,SARS-CoV-2,"viral replication, high-content imaging screen",,cell-based,,EC50,> 100 µM
COc1ccc2cc1Oc1ccc(cc1)C[C@H]1c3c(cc4c(c3Oc3cc5c(cc3OC)CCN(C)[C@@H]5C2)OCO4)CCN1C,African swine fever virus,,"pig, organs and swabs",dose not given,,viral load,no effect
COc1ccc2c(Sc3ccc(Cl)cc3)c(C(=O)NCCCN3CCCCC3)[nH]c2c1,SARS-CoV-2,cytopathic effect,USA_WA1/2020,"retest, 8-point, duplicates",,maximum response,90.1%
COC(=O)N[C@H](C(=O)N1CCC[C@H]1c1nc(-c2ccc(-c3ccc(-c4c[nH]c([C@@H]5CCCN5C(=O)[C@@H](NC(=O)OC)C(C)C)n4)cc3)cc2)c[nH]1)C(C)C,SARS-CoV-2,"viral replication, GFP plate reader screen",,cell-based,,EC50,> 100 µM
CCCCN(CCCNC(=O)c1cc(Nc2ccc(OC)c(OC)c2)nc2ccccc12)Cc1ccccc1,SARS-CoV-2,cytopathic effect,USA_WA1/2020,"retest, 8-point, duplicates",,maximum response,10.2%
O=C(CCc1ccncc1)N1CCCC(CCc2ccc(F)c(F)c2)C1 (centres unmarked),Lassa mammarenavirus,viral replication,Huh-7,"10 µM, 72 h",,remaining activity,49%
CC(C)(C)c1ccc(C(=O)Nc2ccc(N3CCCN(C(=O)c4cnccn4)CC3)nc2)cc1,Mycobacterium tuberculosis,bacterial growth,H37Ra-lux,168 h,,IC90,> 64 µM
COc1ccc(C[C@@H]2NC(=O)[C@@H](NC(=O)Cc3ccc4c(c3)OCO4)Cc3ccc(cc3)OC[C@H](CC(C)C)NC(=O)CN(CC3CC3)C(=O)[C@@H](C)NC2=O)cc1,Lassa mammarenavirus,viral replication,Huh-7,concentration not given,,Emax,63.1%
O=C(Nc1ccc(N2CCCN(C(=O)c3cnccn3)CC2)nc1)c1cccc(Br)c1,Mycobacterium tuberculosis,bacterial growth,H37Ra-lux,168 h,,IC90,> 64 µM
CN1CCCN(C(c2ccccc2)c2ccc(Cl)cc2)CC1 (centres unmarked),SARS-CoV-2,"viral replication, high-content imaging screen",,cell-based,,EC50,> 25.1 µM
COc1ccccc1-c1ccc(CN2CCC(NC(=O)Cc3ccc(F)cc3)C2)cc1 (centres unmarked),SARS-CoV-2,cytopathic effect,USA_WA1/2020,"round 1, 5-point",,maximum response,90.6%
CC[C@H]1CN2CC[C@H]1C[C@@H]2[C@@H](O)c1ccnc2ccc(OC)cc12,SARS-CoV-2,"viral replication, GFP plate reader screen",,cell-based,,EC50,15.5 µM
O=C1c2c(O)c(=O)ccn2N([C@@H]2c3ccccc3SCc3c2ccc(F)c3F)[C@@H]2COCCN12,Influenza A virus,"viral replication, plaque reduction",A(H7N1),mean,,EC50,0.00023 ± 2e-05 µM
CCCCCCCCCCCCN(C)C(=O)CP(=O)(O)O,Bacillus anthracis,,Ames/IA,,,MIC90,0.78 µg/mL
CCCc1cnc(C)nc1N1C[C@@H]2NC(=O)CN(CCOC)C(=O)CCc3ccc(OC)c(c3)Oc3cccc(c3)CO[C@H]2C1,Lassa mammarenavirus,viral replication,Huh-7,"10 µM, 72 h",,remaining activity,51%
Clc1ccccc1C1(c2ccnc(-c3ccccc3)n2)CCNCC1,SARS-CoV-2,cytopathic effect,USA_WA1/2020,"round 1, 5-point",,maximum response,96.2%
OC1(CN2CCN(C(c3ccc(F)cc3)c3ccc(F)cc3)CC2)CCCNC1 (centres unmarked),Lassa mammarenavirus,viral replication,Huh-7,"10 µM, 72 h",,remaining activity,32%
CCc1ccc(Sc2cc(C(=O)NCCCN3CCCC(C)C3)c3ccccc3n2)cc1 (centres unmarked),SARS-CoV-2,cytopathic effect,USA_WA1/2020,first round 5-point,,efficacy,102%
CNC(=O)[C@@H](NC(=O)[C@H](CC(C)C)[C@H](O)C(=O)NO)C(C)(C)C,Daboia russelii,,C2C12,"100 µM, added: Daboia russelii venom KA",relative to: venom alone,viability difference,-65.2%
CC(C)(C)NCc1ccc(Nc2ccnc3cc(Cl)ccc23)cc1O,SARS-CoV-2,"cytopathic effect, cell-based CPE",USA_WA1/2020,,,AC50,14.1 µM
O=C(CC1CCCCC1)Nc1ncc(Cc2ccc3ccccc3c2)s1,Histoplasma capsulatum,microbial growth,,,,MIC,20 µM
CC(=O)N1CC(=O)N[C@@H](CC(C)C)c2nc(cs2)C(=O)N[C@@H](Cc2ccccc2)c2nc(C)nn2CC(=O)N[C@@H](C(C)C)C1,Lassa mammarenavirus,viral replication,Huh-7,"10 µM, 72 h",,remaining activity,119%
CN1CCN(CCCN2c3ccccc3Sc3ccccc32)CC1,SARS-CoV-2,"viral replication, high-content imaging screen",,cell-based,,EC50,> 100 µM
CNC(=NCCSCc1csc(N=C(N)N)n1)NC#N,Marburg virus,pseudovirus entry,A549,,relative to: CC50 over IC50,selectivity index,1
CCN(CCO)CCCC(C)Nc1ccnc2cc(Cl)ccc12 (centres unmarked),SARS-CoV-2 Delta,viral replication,A549-ACE2,48 h,,IC50,20.4 µM
COc1ccc(C[C@@H]2c3cc(Oc4cc(C[C@@H]5c6cc(O)c(OC)cc6CCN5C)ccc4O)c(OC)cc3CCN2C)cc1,SARS-CoV-2,viral replication,Vero E6,12.5 µM,,CPE inhibition,0%
CN(C)CC/C=C1\c2ccccc2CSc2ccccc21,SARS-CoV-2,"viral replication, high-content imaging screen",,cell-based,,EC50,> 25.1 µM
CCc1c(C(=O)C(N)=O)c2c(OCC(=O)O)cccc2n1Cc1ccccc1,Daboia russelii,,mouse,"intravenous, 60 µg/mouse, 24 h, drug mixture, added: KA venom 2.5 x LD50 preincubated",,survival,0%
CC(C)C[C@@H]1NC(=O)c2coc(n2)[C@H](Cc2ccccc2)NC(=O)CN(C(=O)CN(C)C2CCCC2)CCNC(=O)c2csc1n2,Lassa mammarenavirus,viral replication,Huh-7,concentration not given,,Emax,98.4%
